Assay results gathered from unrelated publications.
Every numbered part comes from another study and shows a few of its results, in no order.
Sequence of UniProt P20794 (whole entry, looked up): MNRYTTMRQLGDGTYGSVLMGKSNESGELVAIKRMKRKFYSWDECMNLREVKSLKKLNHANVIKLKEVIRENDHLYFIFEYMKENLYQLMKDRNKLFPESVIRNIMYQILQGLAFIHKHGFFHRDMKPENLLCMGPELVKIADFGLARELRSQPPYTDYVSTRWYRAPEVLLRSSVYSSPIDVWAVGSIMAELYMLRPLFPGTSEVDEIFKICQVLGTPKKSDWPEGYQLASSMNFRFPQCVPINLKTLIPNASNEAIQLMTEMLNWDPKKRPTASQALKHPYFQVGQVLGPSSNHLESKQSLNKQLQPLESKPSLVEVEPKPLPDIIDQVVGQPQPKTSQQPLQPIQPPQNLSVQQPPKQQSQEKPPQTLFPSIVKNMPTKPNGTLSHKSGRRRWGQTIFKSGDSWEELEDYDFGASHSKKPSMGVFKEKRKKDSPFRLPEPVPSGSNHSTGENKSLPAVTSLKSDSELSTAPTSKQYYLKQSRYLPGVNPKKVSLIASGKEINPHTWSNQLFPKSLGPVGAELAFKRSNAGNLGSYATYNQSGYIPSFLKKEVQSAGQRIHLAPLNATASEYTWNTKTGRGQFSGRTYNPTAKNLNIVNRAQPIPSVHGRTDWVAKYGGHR
Sequence of UniProt Q08881 (whole entry, looked up): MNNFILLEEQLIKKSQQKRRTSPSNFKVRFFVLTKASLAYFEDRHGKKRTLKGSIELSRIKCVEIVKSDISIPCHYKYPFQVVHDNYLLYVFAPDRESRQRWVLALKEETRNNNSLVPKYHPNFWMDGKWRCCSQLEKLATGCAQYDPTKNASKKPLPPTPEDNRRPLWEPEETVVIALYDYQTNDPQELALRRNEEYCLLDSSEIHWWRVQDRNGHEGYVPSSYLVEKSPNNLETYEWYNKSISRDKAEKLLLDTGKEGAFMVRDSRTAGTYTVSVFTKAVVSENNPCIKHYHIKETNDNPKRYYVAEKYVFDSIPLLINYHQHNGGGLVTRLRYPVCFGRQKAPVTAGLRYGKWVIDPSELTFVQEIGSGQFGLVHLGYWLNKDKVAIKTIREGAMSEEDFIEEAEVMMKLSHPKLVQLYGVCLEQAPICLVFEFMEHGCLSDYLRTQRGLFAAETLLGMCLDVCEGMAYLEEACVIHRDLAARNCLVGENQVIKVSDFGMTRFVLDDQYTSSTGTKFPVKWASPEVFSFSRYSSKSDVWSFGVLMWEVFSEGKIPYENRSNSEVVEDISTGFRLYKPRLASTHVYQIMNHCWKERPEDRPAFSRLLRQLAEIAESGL
Sequence of UniProt Q16566 (whole entry, looked up): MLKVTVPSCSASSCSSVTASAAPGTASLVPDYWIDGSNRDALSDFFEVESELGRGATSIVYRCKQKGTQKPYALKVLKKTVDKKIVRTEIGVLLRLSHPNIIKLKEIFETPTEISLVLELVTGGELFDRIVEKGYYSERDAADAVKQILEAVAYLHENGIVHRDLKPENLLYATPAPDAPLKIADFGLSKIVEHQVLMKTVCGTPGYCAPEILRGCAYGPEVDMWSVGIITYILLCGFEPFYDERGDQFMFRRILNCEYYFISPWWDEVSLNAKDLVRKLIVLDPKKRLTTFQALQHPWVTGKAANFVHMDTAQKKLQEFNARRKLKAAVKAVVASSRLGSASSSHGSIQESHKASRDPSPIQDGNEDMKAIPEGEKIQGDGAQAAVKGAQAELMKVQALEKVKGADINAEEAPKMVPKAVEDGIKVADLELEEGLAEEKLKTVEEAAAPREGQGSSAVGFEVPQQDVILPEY
Sequence of UniProt O75385 (whole entry, looked up): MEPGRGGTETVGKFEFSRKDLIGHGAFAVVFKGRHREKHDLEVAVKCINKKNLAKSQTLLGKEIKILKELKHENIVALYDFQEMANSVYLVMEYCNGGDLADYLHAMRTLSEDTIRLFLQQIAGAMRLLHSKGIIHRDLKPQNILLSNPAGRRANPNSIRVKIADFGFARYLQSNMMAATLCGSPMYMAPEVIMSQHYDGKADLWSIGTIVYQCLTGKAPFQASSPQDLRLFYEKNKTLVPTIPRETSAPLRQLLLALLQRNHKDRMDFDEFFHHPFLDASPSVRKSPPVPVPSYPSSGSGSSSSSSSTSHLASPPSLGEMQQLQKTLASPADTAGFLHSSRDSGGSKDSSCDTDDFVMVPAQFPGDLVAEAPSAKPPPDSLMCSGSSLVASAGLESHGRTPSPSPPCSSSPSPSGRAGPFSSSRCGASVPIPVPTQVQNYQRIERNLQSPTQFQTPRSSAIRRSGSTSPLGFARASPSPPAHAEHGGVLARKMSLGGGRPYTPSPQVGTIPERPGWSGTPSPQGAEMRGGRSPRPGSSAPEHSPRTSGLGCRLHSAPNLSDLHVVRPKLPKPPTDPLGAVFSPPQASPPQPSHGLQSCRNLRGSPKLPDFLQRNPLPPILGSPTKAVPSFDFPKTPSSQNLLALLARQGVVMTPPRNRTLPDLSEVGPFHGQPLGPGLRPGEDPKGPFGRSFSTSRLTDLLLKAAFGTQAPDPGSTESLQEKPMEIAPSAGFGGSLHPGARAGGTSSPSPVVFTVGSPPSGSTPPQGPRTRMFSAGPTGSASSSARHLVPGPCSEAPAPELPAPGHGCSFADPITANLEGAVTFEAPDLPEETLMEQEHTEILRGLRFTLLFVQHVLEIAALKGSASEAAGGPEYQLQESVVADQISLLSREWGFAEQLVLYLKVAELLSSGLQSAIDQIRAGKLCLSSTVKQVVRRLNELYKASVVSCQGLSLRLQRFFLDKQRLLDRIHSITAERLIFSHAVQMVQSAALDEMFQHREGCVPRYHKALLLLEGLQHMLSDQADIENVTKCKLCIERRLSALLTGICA
Sequence of UniProt Q9UHD2 (whole entry, looked up): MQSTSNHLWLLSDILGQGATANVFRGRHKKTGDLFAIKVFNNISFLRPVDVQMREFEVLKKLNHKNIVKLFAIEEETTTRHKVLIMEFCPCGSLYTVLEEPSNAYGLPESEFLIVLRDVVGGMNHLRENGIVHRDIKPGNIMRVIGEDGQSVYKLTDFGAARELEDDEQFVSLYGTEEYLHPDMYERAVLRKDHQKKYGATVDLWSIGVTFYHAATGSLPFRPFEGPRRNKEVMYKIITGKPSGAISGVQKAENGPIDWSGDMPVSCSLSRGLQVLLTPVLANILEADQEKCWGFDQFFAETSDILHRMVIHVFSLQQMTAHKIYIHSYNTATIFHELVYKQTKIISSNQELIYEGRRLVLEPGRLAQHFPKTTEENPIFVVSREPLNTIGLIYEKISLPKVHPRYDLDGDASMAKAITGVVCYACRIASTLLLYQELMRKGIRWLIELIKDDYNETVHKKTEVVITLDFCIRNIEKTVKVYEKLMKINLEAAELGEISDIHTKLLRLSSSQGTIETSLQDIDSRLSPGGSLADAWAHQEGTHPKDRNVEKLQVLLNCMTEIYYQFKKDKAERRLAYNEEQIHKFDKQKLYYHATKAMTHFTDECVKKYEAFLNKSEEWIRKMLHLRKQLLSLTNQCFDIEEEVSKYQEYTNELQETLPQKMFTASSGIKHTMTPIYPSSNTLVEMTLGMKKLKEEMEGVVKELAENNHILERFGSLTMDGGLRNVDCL
Sequence of UniProt Q15835 (whole entry, looked up): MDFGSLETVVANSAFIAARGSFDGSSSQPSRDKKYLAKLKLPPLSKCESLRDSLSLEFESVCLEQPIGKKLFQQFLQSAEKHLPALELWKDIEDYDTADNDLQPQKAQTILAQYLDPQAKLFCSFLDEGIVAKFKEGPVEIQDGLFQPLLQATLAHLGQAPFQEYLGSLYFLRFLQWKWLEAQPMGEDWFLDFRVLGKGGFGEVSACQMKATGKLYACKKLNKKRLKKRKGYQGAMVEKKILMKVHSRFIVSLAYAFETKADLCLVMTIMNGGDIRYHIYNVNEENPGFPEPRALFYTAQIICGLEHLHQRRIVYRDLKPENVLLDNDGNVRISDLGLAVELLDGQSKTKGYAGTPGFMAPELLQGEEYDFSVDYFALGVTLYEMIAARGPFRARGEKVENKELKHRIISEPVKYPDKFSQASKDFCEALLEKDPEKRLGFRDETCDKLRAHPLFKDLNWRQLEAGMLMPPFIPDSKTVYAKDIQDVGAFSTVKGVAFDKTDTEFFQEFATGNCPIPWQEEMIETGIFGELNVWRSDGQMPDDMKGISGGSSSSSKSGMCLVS

Series 1
Target: Beta-1 adrenergic receptor (ADRB1, Homo sapiens, UniProt P08588)
Sequence of UniProt P08588 (whole entry, looked up): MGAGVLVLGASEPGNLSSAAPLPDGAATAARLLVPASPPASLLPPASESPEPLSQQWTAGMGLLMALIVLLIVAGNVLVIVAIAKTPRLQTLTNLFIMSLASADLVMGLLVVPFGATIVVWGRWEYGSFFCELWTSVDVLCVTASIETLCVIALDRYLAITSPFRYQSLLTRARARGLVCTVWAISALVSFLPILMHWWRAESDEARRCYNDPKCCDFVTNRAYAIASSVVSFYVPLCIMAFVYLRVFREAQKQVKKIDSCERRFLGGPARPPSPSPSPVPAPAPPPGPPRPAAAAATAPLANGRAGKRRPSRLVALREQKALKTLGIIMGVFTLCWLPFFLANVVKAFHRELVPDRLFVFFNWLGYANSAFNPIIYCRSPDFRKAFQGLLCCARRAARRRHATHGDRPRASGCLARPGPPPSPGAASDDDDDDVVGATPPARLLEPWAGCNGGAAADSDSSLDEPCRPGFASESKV
Mode: agonist
Compound	EC50 [µM]
O=C(Nc1cccc(C(F)(F)F)c1)N[C@H]1CO[C@H]2[C@@H]1OC[C@@H]2Nc1nccc(C2CCCC2)n1	≥ 100
Cc1ccc(Sc2ccccc2N2CCNCC2)c(C)c1	≥ 100
COc1ccccc1NC(=O)c1cc2c(ccc3ccccc32)oc1=O	≥ 100
CCn1c(=O)cc(N2CCN(c3cccc(Cl)c3)CC2)[nH]c1=O	≥ 100
Nc1nc2c(ncn2C2OC3COP(=O)(O)OC3C2O)c(=O)[nH]1 (stereo not drawn)	≥ 100
CN(C)CCNc1cc(-c2cccs2)nc2ccccc12	≥ 100
Cc1cccc(NC(=O)c2sc3nc(-c4cc5ccc(O)cc5oc4=O)[nH]c(=O)c3c2C)c1	≥ 100
Cc1nn2cc(CCNCC3(O)CNCCOC3)nc2s1 (stereo not drawn)	≥ 100
Cn1cc(-c2cnc(Nc3ccc(F)cc3)c3c2CCO3)cn1	≥ 100
COc1cc(F)ccc1-c1nc(N2CCOCC2)cc2c1CN(CC(F)(F)F)C2=O	≥ 100
c1cncc(-c2cc(-c3cccc(N4CCOCC4)c3)cn3cncc23)c1	≥ 100
CCn1ccnc1CN(C)Cc1cccc(OCC(O)CN(C)C2CCCCC2)c1 (stereo not drawn)	≥ 100
CN(C)c1cccc(C(=O)Nc2ncc(-c3cnn(C)c3)c3c2OCC3)c1	≥ 100
CC(O)CN1CCN(c2cnc3ccccc3n2)CC1C (stereo not drawn)	≥ 100

Series 2
Target: Calcium/calmodulin-dependent protein kinase type II subunit alpha (CAMK2A, Homo sapiens, UniProt Q9UQM7)
Sequence of UniProt Q9UQM7 (whole entry, looked up): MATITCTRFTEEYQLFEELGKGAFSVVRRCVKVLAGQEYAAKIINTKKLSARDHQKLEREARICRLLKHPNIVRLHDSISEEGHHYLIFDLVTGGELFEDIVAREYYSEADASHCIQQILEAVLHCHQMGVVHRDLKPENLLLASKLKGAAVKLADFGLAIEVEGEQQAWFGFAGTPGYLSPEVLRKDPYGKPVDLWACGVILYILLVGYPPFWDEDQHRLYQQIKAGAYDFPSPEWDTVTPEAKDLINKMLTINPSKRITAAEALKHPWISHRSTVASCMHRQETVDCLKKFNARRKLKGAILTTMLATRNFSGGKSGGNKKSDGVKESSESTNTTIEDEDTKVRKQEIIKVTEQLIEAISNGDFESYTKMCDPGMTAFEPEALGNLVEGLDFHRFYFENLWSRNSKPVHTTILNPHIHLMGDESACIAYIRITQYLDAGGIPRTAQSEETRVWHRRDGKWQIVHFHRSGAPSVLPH
Read-out: enzyme activity
Mode: inhibitor
Concentration: 0.5 µM
Baseline: control
SMILES	remaining activity
Cc1cn(-c2cc(NC(=O)c3ccc(C)c(Nc4nccc(-c5cccnc5)n4)c3)cc(C(F)(F)F)c2)cn1	96.1%
Nc1cccc(-c2cc3c(Oc4cccc(O)c4)ncnc3[nH]2)c1	115%
O=C(Nc1cccc(Nc2nccc(Nc3cccc(C(F)(F)F)c3)n2)c1)C1CC1	98%
CCN(CC)CCNC(=O)c1c(C)[nH]c(/C=C2\C(=O)Nc3ccc(F)cc32)c1C	14.5%
CN(C)C[C@H]1CCn2c(c(C3=C(c4cn(C)c5ccccc45)C(=O)NC3=O)c3ccccc32)C1	100%
Cn1nc2c3c(cccc31)C(=O)c1ccccc1-2	106%
Ic1cccc(CSc2nnc(-c3ccncc3)o2)c1	92.3%
COc1cc2ncnc(Nc3ccc(O)c(Br)c3)c2cc1OC	98%
c1ccc(-c2[nH]ncc2-c2ccnc3ccccc23)nc1	102%
O=C1C(Cl)=C(N2C(=O)CCC2=O)C(=O)c2ccccc21	89.6%
CCN(CC)C(=O)c1ccc(Nc2nc(OCC3CCCCC3)c3[nH]cnc3n2)cc1	105%
CCN(CC)CCNC(=O)c1c(C)[nH]c(/C=C2\C(=O)Nc3ccc(Cl)cc32)c1C	3.6%
CN([C@@H](Cc1ccc(OS(=O)(=O)c2cccc3cnccc23)cc1)C(=O)N1CCN(c2ccccc2)CC1)S(=O)(=O)c1cccc2cnccc12	107%
Cc1cc2ncc(-c3ccccc3)nc2cc1C	98.4%
O=C1c2ccccc2-c2n[nH]c3cccc1c23	82.6%
Cc1nc2cc3nc(-c4cccs4)cnc3cc2n1C	105%
N#C/C(=C\c1ccc(O)c(O)c1)C(=O)NCc1ccccc1	100%
N#Cc1c(NC(=O)c2cccc3ccccc23)sc2c1CCCC2	104%
O=c1cc(-c2cccc3c2Sc2ccccc2S3)oc(N2CCOCC2)c1	100%
O=C(NC(NC(=S)Nc1ccc(F)c([N+](=O)[O-])c1)C(Cl)(Cl)Cl)C(c1ccccc1)c1ccccc1 (stereo not drawn)	96%
COc1cc2ncnc(Nc3cccc(Cl)c3)c2cc1OC	98.2%
CCOc1nc(NC(=O)Cc2cc(OC)ccc2OC)cc(N)c1C#N	104%
c1ccc(-c2cnc(Nc3ccc(OCCN4CCCC4)cc3)s2)cc1	62.9%

Series 3
SMILES: CNC(=O)c1ccc(Nc2ncc(C(F)(F)F)c(NCc3nccnc3N(C)S(C)(=O)=O)n2)cc1
Read-out: cell-free assay
Method: competition with immobilised ligand
Concentration: 0.1 µM
target	remaining binding [%]
Rhodopsin kinase GRK1 (GRK1, Homo sapiens, UniProt Q15835)	99
Tyrosine-protein kinase Mer (MERTK, Homo sapiens, UniProt Q12866)	54
Tyrosine-protein kinase Fer (FER, Homo sapiens, UniProt P16591)	83
Serine/threonine-protein kinase MAK (MAK, Homo sapiens, UniProt P20794)	85
Rho-associated protein kinase 2 (ROCK2, Homo sapiens, UniProt O75116)	100
Hepatocyte growth factor receptor (MET, Homo sapiens, UniProt P08581)	66
Protein kinase C delta type (PRKCD, Homo sapiens, UniProt Q05655)	100
Rhodopsin kinase GRK7 (GRK7, Homo sapiens, UniProt Q8WTQ7)	97
Aurora kinase C (AURKC, Homo sapiens, UniProt Q9UQB9)	47
Tyrosine-protein kinase Srms (SRMS, Homo sapiens, UniProt Q9H3Y6)	96
Calcium/calmodulin-dependent protein kinase type IV (CAMK4, Homo sapiens, UniProt Q16566)	100
Tyrosine-protein kinase ITK/TSK (ITK, Homo sapiens, UniProt Q08881)	80
Mitogen-activated protein kinase kinase kinase kinase 2 (MAP4K2, Homo sapiens, UniProt Q12851)	100
Serine/threonine-protein kinase Sgk2 (SGK2, Homo sapiens, UniProt Q9HBY8)	96
Eukaryotic translation initiation factor 2-alpha kinase 1 (EIF2AK1, Homo sapiens, UniProt Q9BQI3)	85
Serine/threonine-protein kinase Nek5 (NEK5, Homo sapiens, UniProt Q6P3R8)	100
Serine/threonine-protein kinase ULK1 (ULK1, Homo sapiens, UniProt O75385)	47
Discoidin domain-containing receptor 2 (DDR2, Homo sapiens, UniProt Q16832)	100
Interleukin-1 receptor-associated kinase 3 (IRAK3, Homo sapiens, UniProt Q9Y616)	70
ALK tyrosine kinase receptor (ALK, Homo sapiens, UniProt Q9UM73, L1196M)	85
Macrophage colony-stimulating factor 1 receptor, autoinhibited (CSF1R, Homo sapiens, UniProt P07333)	76
Serine/threonine-protein kinase WNK4 (WNK4, Homo sapiens, UniProt Q96J92)	81
SRSF protein kinase 3 (SRPK3, Homo sapiens, UniProt Q9UPE1)	100
Phosphatidylinositol 4,5-bisphosphate 3-kinase catalytic subunit gamma isoform (PIK3CG, Homo sapiens, UniProt P48736)	100
MAP kinase-activated protein kinase 2 (MAPKAPK2, Homo sapiens, UniProt P49137)	100

Other studies, line by line
Structure (SMILES)	target	read-out	concentration	endpoint	result
COc1ccc2[nH]c3c4[nH]c5ccc(OC)cc5c4c4c(c3c2c1)C(=O)NC4=O	Serine/threonine-protein kinase TBK1 (TBK1, Homo sapiens, UniProt Q9UHD2)	enzyme activity	1 µM	remaining activity	59%

Repeated from above (series 2):
SMILES	remaining activity
Cc1cn(-c2cc(NC(=O)c3ccc(C)c(Nc4nccc(-c5cccnc5)n4)c3)cc(C(F)(F)F)c2)cn1	96.1%
Nc1cccc(-c2cc3c(Oc4cccc(O)c4)ncnc3[nH]2)c1	115%
O=C(Nc1cccc(Nc2nccc(Nc3cccc(C(F)(F)F)c3)n2)c1)C1CC1	98%
CCN(CC)CCNC(=O)c1c(C)[nH]c(/C=C2\C(=O)Nc3ccc(F)cc32)c1C	14.5%
CN(C)C[C@H]1CCn2c(c(C3=C(c4cn(C)c5ccccc45)C(=O)NC3=O)c3ccccc32)C1	100%
Cn1nc2c3c(cccc31)C(=O)c1ccccc1-2	106%
Ic1cccc(CSc2nnc(-c3ccncc3)o2)c1	92.3%
